Results of several laboratories.
Each numbered part is a random draw from the data of one study; scales do not carry over between parts.
Chain of UniProt Q16644 (whole entry, looked up): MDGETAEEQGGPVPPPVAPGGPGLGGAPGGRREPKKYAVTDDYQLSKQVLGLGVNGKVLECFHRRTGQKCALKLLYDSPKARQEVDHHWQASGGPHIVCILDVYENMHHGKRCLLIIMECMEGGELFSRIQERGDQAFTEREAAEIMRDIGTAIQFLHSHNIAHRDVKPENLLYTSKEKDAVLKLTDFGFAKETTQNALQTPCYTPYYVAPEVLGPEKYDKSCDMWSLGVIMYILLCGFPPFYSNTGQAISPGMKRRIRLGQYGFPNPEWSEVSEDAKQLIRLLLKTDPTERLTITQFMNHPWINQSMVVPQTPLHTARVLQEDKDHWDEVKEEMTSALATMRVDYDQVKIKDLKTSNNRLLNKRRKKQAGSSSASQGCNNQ
Chain of UniProt P54760 (whole entry, looked up): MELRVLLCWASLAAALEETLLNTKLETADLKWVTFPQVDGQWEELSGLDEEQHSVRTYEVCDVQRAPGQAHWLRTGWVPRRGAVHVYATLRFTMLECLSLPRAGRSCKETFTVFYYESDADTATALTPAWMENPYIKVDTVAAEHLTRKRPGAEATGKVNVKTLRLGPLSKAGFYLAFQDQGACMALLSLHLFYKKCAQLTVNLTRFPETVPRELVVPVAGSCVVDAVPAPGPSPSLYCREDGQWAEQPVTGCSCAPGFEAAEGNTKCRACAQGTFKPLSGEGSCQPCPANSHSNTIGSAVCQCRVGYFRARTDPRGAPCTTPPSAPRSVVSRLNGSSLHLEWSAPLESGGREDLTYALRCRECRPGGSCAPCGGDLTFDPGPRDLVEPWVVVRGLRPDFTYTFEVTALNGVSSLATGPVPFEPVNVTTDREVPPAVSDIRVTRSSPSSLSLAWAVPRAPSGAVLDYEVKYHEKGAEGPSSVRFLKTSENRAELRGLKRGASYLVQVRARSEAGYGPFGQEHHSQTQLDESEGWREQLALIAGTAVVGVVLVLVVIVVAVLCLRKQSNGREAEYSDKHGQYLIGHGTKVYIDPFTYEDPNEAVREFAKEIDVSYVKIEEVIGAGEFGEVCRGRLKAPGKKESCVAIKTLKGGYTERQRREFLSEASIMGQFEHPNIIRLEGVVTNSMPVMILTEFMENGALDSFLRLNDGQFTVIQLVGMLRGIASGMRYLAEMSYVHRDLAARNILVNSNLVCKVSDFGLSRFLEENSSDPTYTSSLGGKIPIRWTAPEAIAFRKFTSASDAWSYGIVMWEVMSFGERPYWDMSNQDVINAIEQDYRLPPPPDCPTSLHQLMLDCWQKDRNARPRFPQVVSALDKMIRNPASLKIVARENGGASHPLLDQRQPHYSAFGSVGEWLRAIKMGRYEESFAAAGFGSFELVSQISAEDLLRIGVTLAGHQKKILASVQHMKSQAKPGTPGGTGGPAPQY
Chain of UniProt O15530 (whole entry, looked up): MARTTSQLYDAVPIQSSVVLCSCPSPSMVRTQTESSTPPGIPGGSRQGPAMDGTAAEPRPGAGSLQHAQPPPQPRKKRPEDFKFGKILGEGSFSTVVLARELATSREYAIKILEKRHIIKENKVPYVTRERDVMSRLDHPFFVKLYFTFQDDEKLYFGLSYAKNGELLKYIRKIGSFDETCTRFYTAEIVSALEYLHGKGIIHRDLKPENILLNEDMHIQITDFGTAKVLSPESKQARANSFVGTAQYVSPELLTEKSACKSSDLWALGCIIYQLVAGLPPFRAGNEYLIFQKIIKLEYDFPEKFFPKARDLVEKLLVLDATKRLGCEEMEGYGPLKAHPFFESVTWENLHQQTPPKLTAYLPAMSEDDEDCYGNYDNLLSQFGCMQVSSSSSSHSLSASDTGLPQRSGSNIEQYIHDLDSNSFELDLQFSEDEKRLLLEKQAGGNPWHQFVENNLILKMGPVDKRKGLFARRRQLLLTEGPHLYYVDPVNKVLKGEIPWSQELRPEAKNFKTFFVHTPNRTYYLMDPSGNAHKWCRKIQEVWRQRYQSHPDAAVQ
Chain of UniProt P35590 (whole entry, looked up): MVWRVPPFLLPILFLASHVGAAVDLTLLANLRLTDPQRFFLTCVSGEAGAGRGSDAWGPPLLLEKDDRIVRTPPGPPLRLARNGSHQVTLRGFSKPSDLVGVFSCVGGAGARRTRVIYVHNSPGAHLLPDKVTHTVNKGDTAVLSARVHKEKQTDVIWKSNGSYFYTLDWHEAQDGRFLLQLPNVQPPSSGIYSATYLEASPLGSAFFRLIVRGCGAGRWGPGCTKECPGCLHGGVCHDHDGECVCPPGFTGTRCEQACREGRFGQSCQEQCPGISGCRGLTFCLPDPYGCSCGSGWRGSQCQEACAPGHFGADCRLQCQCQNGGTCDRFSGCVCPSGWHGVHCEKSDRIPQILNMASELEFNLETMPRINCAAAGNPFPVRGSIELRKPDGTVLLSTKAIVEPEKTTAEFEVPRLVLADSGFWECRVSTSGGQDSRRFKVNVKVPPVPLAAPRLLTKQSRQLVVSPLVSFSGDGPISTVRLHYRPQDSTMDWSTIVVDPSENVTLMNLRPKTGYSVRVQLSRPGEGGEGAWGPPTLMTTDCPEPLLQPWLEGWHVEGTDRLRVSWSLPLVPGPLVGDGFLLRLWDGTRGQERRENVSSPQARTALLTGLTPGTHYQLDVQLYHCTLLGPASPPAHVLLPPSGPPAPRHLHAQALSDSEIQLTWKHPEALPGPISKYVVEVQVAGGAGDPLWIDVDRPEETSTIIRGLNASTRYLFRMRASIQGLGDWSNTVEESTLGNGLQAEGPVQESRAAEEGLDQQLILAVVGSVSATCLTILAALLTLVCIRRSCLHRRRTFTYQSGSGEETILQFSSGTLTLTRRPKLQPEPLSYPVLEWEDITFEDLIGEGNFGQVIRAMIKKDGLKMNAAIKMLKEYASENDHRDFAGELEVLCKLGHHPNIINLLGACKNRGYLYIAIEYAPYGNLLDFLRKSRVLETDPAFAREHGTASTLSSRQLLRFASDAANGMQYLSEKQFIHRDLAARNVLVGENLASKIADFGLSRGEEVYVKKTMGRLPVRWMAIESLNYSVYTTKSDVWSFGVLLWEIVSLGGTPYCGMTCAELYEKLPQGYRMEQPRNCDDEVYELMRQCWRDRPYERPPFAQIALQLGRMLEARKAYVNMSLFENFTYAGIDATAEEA
Chain of UniProt Q9BYP7 (whole entry, looked up): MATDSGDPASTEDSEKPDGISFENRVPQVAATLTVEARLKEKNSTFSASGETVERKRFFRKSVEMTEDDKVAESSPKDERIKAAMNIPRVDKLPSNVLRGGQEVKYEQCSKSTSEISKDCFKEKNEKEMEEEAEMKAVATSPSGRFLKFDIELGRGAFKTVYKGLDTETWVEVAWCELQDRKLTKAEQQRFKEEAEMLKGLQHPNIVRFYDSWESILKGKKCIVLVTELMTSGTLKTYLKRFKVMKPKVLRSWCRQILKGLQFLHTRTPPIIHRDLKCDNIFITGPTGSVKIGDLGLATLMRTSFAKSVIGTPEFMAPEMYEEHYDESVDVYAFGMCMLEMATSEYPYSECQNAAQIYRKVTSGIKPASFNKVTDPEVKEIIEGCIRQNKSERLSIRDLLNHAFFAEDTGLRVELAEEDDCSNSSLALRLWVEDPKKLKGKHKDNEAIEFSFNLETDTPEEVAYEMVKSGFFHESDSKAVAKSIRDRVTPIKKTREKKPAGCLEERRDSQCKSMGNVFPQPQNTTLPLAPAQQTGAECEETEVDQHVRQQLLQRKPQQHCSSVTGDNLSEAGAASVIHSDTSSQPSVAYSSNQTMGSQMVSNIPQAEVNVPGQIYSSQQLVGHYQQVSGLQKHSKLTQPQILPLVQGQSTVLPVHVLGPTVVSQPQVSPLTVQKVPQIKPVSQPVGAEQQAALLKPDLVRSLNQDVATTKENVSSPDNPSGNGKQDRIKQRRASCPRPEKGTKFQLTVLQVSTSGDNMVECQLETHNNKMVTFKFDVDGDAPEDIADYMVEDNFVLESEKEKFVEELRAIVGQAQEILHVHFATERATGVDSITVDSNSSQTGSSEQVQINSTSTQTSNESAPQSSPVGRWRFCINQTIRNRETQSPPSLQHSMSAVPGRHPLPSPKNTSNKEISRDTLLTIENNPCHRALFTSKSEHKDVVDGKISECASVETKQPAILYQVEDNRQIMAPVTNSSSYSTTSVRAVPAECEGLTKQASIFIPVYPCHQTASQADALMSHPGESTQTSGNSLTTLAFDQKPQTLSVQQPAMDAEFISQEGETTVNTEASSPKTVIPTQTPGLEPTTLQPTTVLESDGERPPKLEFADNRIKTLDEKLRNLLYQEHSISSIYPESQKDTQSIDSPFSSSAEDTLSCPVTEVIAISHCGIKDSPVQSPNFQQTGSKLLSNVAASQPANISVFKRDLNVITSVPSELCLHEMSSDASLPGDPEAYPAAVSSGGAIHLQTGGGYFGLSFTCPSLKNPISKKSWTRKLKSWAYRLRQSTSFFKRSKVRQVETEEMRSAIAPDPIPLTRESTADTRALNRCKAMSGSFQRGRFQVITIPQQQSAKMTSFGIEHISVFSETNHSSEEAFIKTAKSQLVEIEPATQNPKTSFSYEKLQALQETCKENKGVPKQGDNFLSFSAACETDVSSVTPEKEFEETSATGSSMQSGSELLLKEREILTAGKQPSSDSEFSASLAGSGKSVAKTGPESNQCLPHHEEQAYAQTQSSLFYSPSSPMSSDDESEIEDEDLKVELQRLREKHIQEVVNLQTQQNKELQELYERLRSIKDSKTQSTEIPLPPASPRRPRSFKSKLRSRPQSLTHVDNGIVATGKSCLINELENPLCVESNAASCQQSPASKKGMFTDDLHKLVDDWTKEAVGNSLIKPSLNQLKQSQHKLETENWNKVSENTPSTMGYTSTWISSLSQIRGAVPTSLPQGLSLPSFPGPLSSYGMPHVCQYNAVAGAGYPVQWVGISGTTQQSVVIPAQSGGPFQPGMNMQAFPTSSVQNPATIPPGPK

Block 1
Organism: Sarcocystis neurona
Observed: parasite growth
Tested at: 10 µM
Time: 96 h
Reference: untreated
CC(=O)/N=c1/sc(S(N)(=O)=O)nn1C: “log2 fold change” 0.25.
CCCc1nc2c(C)cc(-c3nc4ccccc4n3C)cc2n1Cc1ccc(-c2ccccc2C(=O)O)cc1: “log2 fold change” -0.16.
Under “log2 fold change”, O=C(CCCN1CCC(O)(c2ccc(Cl)cc2)CC1)c1ccc(F)cc1 is recorded as -0.31.
Under “log2 fold change”, Clc1ccc(COC(Cn2ccnc2)c2ccc(Cl)cc2Cl)c(Cl)c1 (stereo not drawn) is recorded as -1.13.
CC(=O)O[C@]1(C(C)=O)CC[C@H]2[C@@H]3C=C(C)C4=CC(=O)CC[C@]4(C)[C@H]3CC[C@@]21C — result for “log2 fold change”: -0.11.
CCc1cccc2c3c([nH]c12)C(CC)(CC(=O)O)OCC3 (stereo not drawn) — result for “log2 fold change”: 0.4.

Block 2
Compound: CC(=O)N1CCC(c2ccc(C(=O)NC3=NCCN3)cc2C(F)(F)F)CC1
Method: competition with immobilised ligand
Tested at: 1 µM
For PIK3CG (Homo sapiens, UniProt P48736); cell-free assay: remaining binding read 100%.
It gave 100% for remaining binding (RET (Homo sapiens, UniProt P07949); cell-free assay).
For ULK3 (Homo sapiens, UniProt Q6PHR2); cell-free assay: remaining binding read 89%.
For OXSR1 (Homo sapiens, UniProt O95747); cell-free assay: remaining binding read 100%.
It gave 100% for remaining binding (TLK1 (Homo sapiens, UniProt Q9UKI8); cell-free assay).
MAP3K2 (Homo sapiens, UniProt Q9Y2U5); cell-free assay — remaining binding: 100%.
The remaining binding was 100% (PAK3 (Homo sapiens, UniProt O75914); cell-free assay).
For NUAK2 (Homo sapiens, UniProt Q9H093); cell-free assay: remaining binding read 90%.
For TIE1 (Homo sapiens, UniProt P35590); cell-free assay: remaining binding read 82%.
For ITK (Homo sapiens, UniProt Q08881); cell-free assay: remaining binding read 91%.
Tyrosine-protein kinase ABL1, phosphorylated (ABL1, Homo sapiens, UniProt P00519, E255K); binding — remaining binding: 82%.
STK26 (Homo sapiens, UniProt Q9P289); cell-free assay — remaining binding: 89%.
It gave 100% for remaining binding (MAP3K10 (Homo sapiens, UniProt Q02779); cell-free assay).
It gave 100% for remaining binding (PAK4 (Homo sapiens, UniProt O96013); cell-free assay).
MST1R (Homo sapiens, UniProt Q04912); cell-free assay — remaining binding: 80%.
PDPK1 (Homo sapiens, UniProt O15530); cell-free assay — remaining binding: 94%.
The remaining binding was 87% (MAP2K3 (Homo sapiens, UniProt P46734); cell-free assay).
For MAP2K5 (Homo sapiens, UniProt Q13163); cell-free assay: remaining binding read 92%.
MAPK15 (Homo sapiens, UniProt Q8TD08); cell-free assay — remaining binding: 100%.
It gave 100% for remaining binding (MARK3 (Homo sapiens, UniProt P27448); cell-free assay).
The remaining binding was 98% (TBK1 (Homo sapiens, UniProt Q9UHD2); cell-free assay).
For EPHB4 (Homo sapiens, UniProt P54760); cell-free assay: remaining binding read 100%.
MAPK7 (Homo sapiens, UniProt Q13164); cell-free assay — remaining binding: 89%.
GRK4 (Homo sapiens, UniProt P32298); cell-free assay — remaining binding: 100%.
For MINK1 (Homo sapiens, UniProt Q8N4C8); cell-free assay: remaining binding read 100%.

Block 3
SMILES: Oc1ccc(Nc2nc(-c3ccc(Cl)cc3)cs2)cc1
Observed: enzyme activity
Action: inhibitor
Tested at: 0.5 µM
Reference: control
For STK17A (Homo sapiens, UniProt Q9UEE5): remaining activity read 98.7%.
It gave 94.1% for remaining activity (MAPKAPK3 (Homo sapiens, UniProt Q16644)).
For RPS6KA6 (Homo sapiens, UniProt Q9UK32): remaining activity read 117%.
It gave 98.7% for remaining activity (WNK3 (Homo sapiens, UniProt Q9BYP7)).
EPHB4 (Homo sapiens, UniProt P54760) — remaining activity: 89.6%.
It gave 85.8% for remaining activity (CAMK2B (Homo sapiens, UniProt Q13554)).
PDPK1 (Homo sapiens, UniProt O15530) — remaining activity: 101%.

Block 4
Compound: CC(C)S(=O)(=O)c1ccc2nccc(Nc3ccc4sc(C5CCCC5)nc4c3)c2c1
Observed: enzyme activity
Action: inhibitor
Tested at: 1 µM
For MAPKAPK5 (Homo sapiens, UniProt Q8IW41): “activity vs control” read 93%.
For TSSK2 (Homo sapiens, UniProt Q96PF2): “activity vs control” read 86%.
It gave 95% for “activity vs control” (CSNK1E (Homo sapiens, UniProt P49674)).
Insulin receptor (INSR, Homo sapiens, UniProt P06213) — “activity vs control”: 93%.
It gave 92% for “activity vs control” (MAPKAPK3 (Homo sapiens, UniProt Q16644)).
STK17B (Homo sapiens, UniProt O94768) — “activity vs control”: 99.5%.
The “activity vs control” was 99% (PIP4K2A (Homo sapiens, UniProt P48426)).
The “activity vs control” was 100% (EEF2K (Homo sapiens, UniProt O00418)).
WEE1 (Homo sapiens, UniProt P30291) — “activity vs control”: 108%.
It gave 84.5% for “activity vs control” (TLK2 (Homo sapiens, UniProt Q86UE8)).
The “activity vs control” was 94.5% (PHKG2 (Homo sapiens, UniProt P15735)).

Block 5
Cell line: A-375
Tested at: 100 µM
Time: 18 h
CN(C)CCC(c1ccc(Br)cc1)c1ccccn1 (stereo not drawn) has a viability of 95.1%.
The viability of COC(=O)[C@@H]1CC2=CC(=O)CC[C@]2(C)[C@@]23O[C@@H]2C[C@@]2(C)[C@@H](CC[C@@]24CCC(=O)O4)[C@H]13 is reported as 90.8%.
COC(=O)[C@H]1[C@H]2C[C@@H]3c4[nH]c5cc(OC)ccc5c4CCN3C[C@H]2C[C@@H](OC(=O)c2cc(OC)c(OC)c(OC)c2)[C@@H]1OC has a viability of 61.8%.
C[C@H]1O[C@@H](O[C@H]2CC[C@@]3(C)[C@@H](CC[C@]4(C)[C@@H]3C=C[C@]35OC[C@@]6(CCC(C)(C)C[C@H]63)[C@@H](O)C[C@]54C)[C@]2(C)CO)[C@H](O)[C@@H](O[C@@H]2O[C@H](CO)[C@@H](O)[C@H](O)[C@H]2O)[C@H]1O has a viability of 7.98%.
For CCCCCCCC(=O)N[C@H](CN1CCCC1)[C@H](O)c1ccc2c(c1)OCCO2, the viability was 40.1%.
Cc1nc2n(c(=O)c1CCN1CCC(c3noc4cc(F)ccc34)CC1)CCCC2O (stereo not drawn) gave a viability of 72.8%.
CC(C)C(=O)Oc1ccc(CO)cc1[C@H](CCN(C(C)C)C(C)C)c1ccccc1 has a viability of 40.4%.
For Cn1c(=O)c2c(ncn2CC(=O)O)n(C)c1=O, the viability was 106%.
For CCOC(CN1CCN(CC(C)C(=O)c2ccccc2)CC1)c1ccccc1 (stereo not drawn), the viability was 60.9%.
Nc1ccc(S(=O)(=O)NC(=O)c2ccccc2)cc1 gave a viability of 97.7%.
The viability of CC1=NN(c2ccccc2)C(=O)C1 is reported as 90.7%.

A few entries again (block 2):
MST1R (Homo sapiens, UniProt Q04912); cell-free assay — remaining binding: 80%.
The remaining binding was 87% (MAP2K3 (Homo sapiens, UniProt P46734); cell-free assay).
MAP3K2 (Homo sapiens, UniProt Q9Y2U5); cell-free assay — remaining binding: 100%.
For NUAK2 (Homo sapiens, UniProt Q9H093); cell-free assay: remaining binding read 90%.
It gave 100% for remaining binding (MAP3K10 (Homo sapiens, UniProt Q02779); cell-free assay).
It gave 100% for remaining binding (PAK4 (Homo sapiens, UniProt O96013); cell-free assay).
For PIK3CG (Homo sapiens, UniProt P48736); cell-free assay: remaining binding read 100%.
